Measured values gathered from unrelated publications.
Lines come from different studies, so protocols differ. Numbers after ± are the reported error.
UniProt P08684, sequence (whole entry, unmodified, looked up): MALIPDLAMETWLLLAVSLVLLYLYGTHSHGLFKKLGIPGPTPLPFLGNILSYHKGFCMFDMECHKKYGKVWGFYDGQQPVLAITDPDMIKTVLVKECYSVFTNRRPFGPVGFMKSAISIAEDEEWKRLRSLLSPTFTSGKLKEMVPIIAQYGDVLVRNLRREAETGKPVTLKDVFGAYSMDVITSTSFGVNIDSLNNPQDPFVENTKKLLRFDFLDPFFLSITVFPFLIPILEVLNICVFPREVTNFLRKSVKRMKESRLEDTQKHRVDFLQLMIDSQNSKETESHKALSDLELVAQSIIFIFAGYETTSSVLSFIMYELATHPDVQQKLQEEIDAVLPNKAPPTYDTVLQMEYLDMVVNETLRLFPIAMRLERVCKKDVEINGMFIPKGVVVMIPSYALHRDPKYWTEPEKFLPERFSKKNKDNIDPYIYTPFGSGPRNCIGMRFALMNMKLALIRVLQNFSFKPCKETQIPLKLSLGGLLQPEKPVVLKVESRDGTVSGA

SMILES = COc1cccc(N2CCN(C3=Nc4c(F)cccc4[C@H](CC(=O)O)N3c3cc(C(F)(F)F)ccc3OC)CC2)c1; assay = UHPLC-MS/MS; test system = healthy women, plasma; setting = intravenous infusion, 720 mg single dose, 60 min infusion, HPβCD formulation; quantity = clearance; value = 72.7 ± 9.41 mL/min
SMILES = CN[C@H]1CN(c2ccc3c(=O)c(C(=O)O)cn(-c4nccs4)c3n2)C[C@@H]1OC; test system = human patients, plasma; setting = intravenous, 18 to 90 mg/m^2 weekly, day 1, cycle 1, mean, noncompartmental; quantity = mean residence time; value = 32.2 h
SMILES = CC[C@H]1OC(=O)[C@H](C)[C@@H](O[C@H]2C[C@@](C)(OC)[C@@H](O)[C@H](C)O2)[C@H](C)[C@@H](O[C@@H]2O[C@H](C)C[C@H](N(C)C)[C@H]2O)[C@](C)(O)C[C@@H](C)CN(C)[C@H](C)[C@@H](O)[C@]1(C)O; target or system = other Enterobacteriaceae; test system = community-acquired pneumonia patients; setting = Fine score below 70; quantity = sensitive strains; value = 0%
SMILES = O=P(O)(O)C(Cl)(Cl)P(=O)(O)O; assay = cytochrome c release, ELISA; test system = BALB/cByJ female mouse liver mitochondria; setting = 30 min; scale = baseline: alamethicin maximal release; quantity = EC20; value = > 400 µM
SMILES = Nc1ccn([C@@H]2O[C@H](CO)[C@@H](O)C2(F)F)c(=O)n1; test system = athymic nude mouse, female, BxPC-3 xenograft, plasma; setting = intravenous, 25 mg/kg; quantity = elimination half-life; value = 10 min
SMILES = CC(C)[C@H](NC(=O)[C@@H]1CCCN1C(=O)[C@H](CCCNC(=N)N)NC(=O)[C@H](CS)NC(=O)[C@H](Cc1c[nH]c2ccccc12)NC(=O)[C@H](CCCNC(=N)N)NC(=O)[C@@H](Cc1ccccc1)NC(=O)[C@H](Cc1c[nH]cn1)NC(=O)[C@H](CCC(=O)O)NC(=O)[C@H](CS)NC(=O)[C@H](CS)NC(=O)[C@H](CCCCN)NC(=O)[C@@H]1CC(=O)N[C@@H](CCCNC(=N)N)C(=O)N[C@@H](C)C(=O)N[C@@H](CC(=O)O)C(=O)N[C@H](Cc2ccc(O)cc2)C(=O)N1)C(N)=O [technetium-99m labelled]; test system = C57 mice, pancreas; setting = intravenous, 0.037 MBq, 2 h; quantity = tissue uptake; value = 0.19 ± 0.05 %ID/g
SMILES = CC(=O)[C@H]1CC[C@H]2[C@@H]3CCC4=CC(=O)CC[C@]4(C)[C@H]3CC[C@]12C; target or system = Cytochrome P450 3A4 (CYP3A4, Homo sapiens, UniProt P08684, S18F); assay = substrate; test system = nanodiscs with CPR; setting = three substrates bound; quantity = NADPH oxidation rate; value = 108 nmol/nmol P450/min
SMILES = O=S(=O)(O)Oc1c(O)cccc1O; test system = human, fasted baseline, cerebrospinal fluid; quantity = mean concentration; value = 2.2 nM
SMILES = O=C(NC[C@H]1CN(c2ccc(N3CCOCC3=O)cc2)C(=O)O1)c1ccc(Cl)s1; test system = Sprague-Dawley rat, male, plasma; setting = oral, 10 mg/kg, with: naringenin 10 mg/kg/day oral, 2 weeks; quantity = apparent volume Vz/F; value = 16.2 ± 8.42 L/kg
SMILES = [2H]C([2H])([2H])Oc1cc2c(cc1OC([2H])([2H])[2H])C1CC(=O)C(CC(C)C)CN1CC2 (centres unmarked); assay = refers to: deuterated total (α+β)-HTBZ; test system = healthy human volunteers, plasma; setting = oral, 18 mg single dose, standard meal; quantity = dose-normalized Cmax; value = 2.6 ng/mL
SMILES = N=C(N)NCCC[C@@H]1NC(=O)[C@H](CCCCNC(=O)CC[C@H](NC(=O)COCCOCCOCCNC(=O)[C@@H]2CSC(c3nc4ccc(OCCF)cc4s3)=N2)C(=O)NCCCC[C@@H]2NC(=O)[C@@H](Cc3ccc(O)cc3)NC(=O)[C@H](CC(=O)O)NC(=O)CNC(=O)[C@H](CCCNC(=N)N)NC2=O)NC(=O)[C@@H](Cc2ccc(O)cc2)NC(=O)[C@H](CC(=O)O)NC(=O)CNC1=O [fluorine-18 labelled]; assay = microPET; test system = nude mice, U-87 MG xenograft, tumour; setting = intravenous, 30 min; quantity = tumour uptake; value = 5.62 ± 1.15 %ID/g
SMILES = Cc1cc(Nc2cc3ncccc3c(N[C@@H]3C[C@H]4CC[C@@H](C3)N4CCC#N)n2)n[nH]1; test system = Sprague-Dawley rat, male, plasma; setting = oral, 1000 mg/kg/day, last day of 4 weeks; quantity = Cmax; value = 62.5 ng/mL
SMILES = Nc1nc(NCC2CCC(CNS(=O)(=O)c3cccc4ccccc34)CC2)nc2ccccc12 (centres unmarked); target or system = Leishmania donovani; test system = intracellular amastigote; quantity = EC50; value = 26 ± 8.1 µM
SMILES = CC1(C)C(/C=C/C=C/C=C/C=C2\N(CCCCS(=O)(=O)O)c3ccc4ccccc4c3C2(C)C)=[N+](CCCCS(=O)(=O)[O-])c2ccc3ccccc3c21; test system = glucose solution in agar phantom; setting = 21 MHz, gain 40 dB; scale = baseline: India Ink; quantity = photoacoustic signal slope; value = 1.13 ± 0.06 µM⁻¹
SMILES = CC1(C)S[C@@H]2[C@H](NC(=O)[C@H](N)c3ccc(O)cc3)C(=O)N2[C@H]1C(=O)O; target or system = other Haemophilus species; test system = community-acquired pneumonia patients; setting = Fine score 70 or more; quantity = sensitive strains; value = 92.9%
SMILES = CO[C@@H]1[C@@H](OC(N)=O)[C@@H](O)[C@H](Oc2ccc3c(O)c(NC(=O)c4ccc(O)c(CC=C(C)C)c4)c(=O)oc3c2C)OC1(C)C; assay = cytochrome c release, ELISA; test system = BALB/cByJ female mouse liver mitochondria; setting = 30 min; scale = baseline: alamethicin maximal release; quantity = EC20; value = > 400 µM
SMILES = O=C1Cc2cc(-c3csc(NCCc4cccs4)n3)cc3c2N1CCC3; target or system = Leishmania donovani; test system = intracellular amastigote; quantity = EC50; value = > 100 µM
SMILES = Cc1nc(C(=O)NCC(=O)O)c(O)c2ccc(Oc3ccccc3)cc12; test system = healthy subjects; setting = oral, 100 mg; scale = baseline: subjects; quantity = moderate adverse events; value = 11.1%
SMILES = CCc1cc2cc(OC)cc(C(=O)c3ccc(OC)cc3)c2o1; assay = metabolic stability; test system = Sprague-Dawley rat, liver microsomes; setting = 1 µM, pH 7.4; quantity = microsomal CLint; value = 549 µL/min/mg
SMILES = CCCC[C@@H]1NC(=O)[C@@H](NC(=O)[C@H](CCC(=O)O)NC(=O)CNC(=O)CN2CCN(CC(=O)O)CCN(CC(=O)O)CCN(CC(=O)O)CC2)CCCCNC(=O)C[C@@H](C(N)=O)NC(=O)[C@H](C(C)C)NC(=O)[C@@H]2CCCN2C(=O)[C@H](CCCNC(=N)N)NC(=O)CNC(=O)[C@H](Cc2c[nH]c3ccccc23)NC(=O)[C@H](CCCNC(=N)N)NC(=O)[C@@H](Cc2ccccc2)NC(=O)[C@H](Cc2c[nH]cn2)NC(=O)[C@H](CCC(=O)O)NC1=O [indium-111 labelled]; test system = C57 mice, B16/F10 lung metastatic melanoma, blood; setting = intravenous, 0.037 MBq, 4 h; quantity = tissue uptake; value = 0.03 ± 0.03 %ID/g
SMILES = CCCCN1CCCCC1C(=O)Nc1c(C)cccc1C (centres unmarked); assay = cytochrome c release, ELISA; test system = BALB/cByJ female mouse liver mitochondria; setting = 30 min; scale = baseline: alamethicin maximal release; quantity = EC20; value = > 800 µM
SMILES = CN(C)Cc1cc(OCCC[18F])ccc1Sc1ccccc1N; target or system = SERT; test system = male Sprague Dawley rat, control, hippocampus; setting = intravenous, 60 min; quantity = tissue uptake; value = 0.45 ± 0.1 %ID/g
SMILES = Cn1c(-c2ccc(C(N)=O)cc2F)nnc1C(C)(C)Oc1c(F)cc(Cl)cc1F; test system = young non-Japanese humans, plasma; setting = oral, 2 mg, day 1, single dose; quantity = mean Cmax; value = 0.864 ng/mL

Repeated from above:
SMILES = O=C(NC[C@H]1CN(c2ccc(N3CCOCC3=O)cc2)C(=O)O1)c1ccc(Cl)s1; test system = Sprague-Dawley rat, male, plasma; setting = oral, 10 mg/kg, with: naringenin 10 mg/kg/day oral, 2 weeks; quantity = apparent volume Vz/F; value = 16.2 ± 8.42 L/kg
SMILES = [2H]C([2H])([2H])Oc1cc2c(cc1OC([2H])([2H])[2H])C1CC(=O)C(CC(C)C)CN1CC2 (centres unmarked); assay = refers to: deuterated total (α+β)-HTBZ; test system = healthy human volunteers, plasma; setting = oral, 18 mg single dose, standard meal; quantity = dose-normalized Cmax; value = 2.6 ng/mL
SMILES = N=C(N)NCCC[C@@H]1NC(=O)[C@H](CCCCNC(=O)CC[C@H](NC(=O)COCCOCCOCCNC(=O)[C@@H]2CSC(c3nc4ccc(OCCF)cc4s3)=N2)C(=O)NCCCC[C@@H]2NC(=O)[C@@H](Cc3ccc(O)cc3)NC(=O)[C@H](CC(=O)O)NC(=O)CNC(=O)[C@H](CCCNC(=N)N)NC2=O)NC(=O)[C@@H](Cc2ccc(O)cc2)NC(=O)[C@H](CC(=O)O)NC(=O)CNC1=O [fluorine-18 labelled]; assay = microPET; test system = nude mice, U-87 MG xenograft, tumour; setting = intravenous, 30 min; quantity = tumour uptake; value = 5.62 ± 1.15 %ID/g
SMILES = Cc1cc(Nc2cc3ncccc3c(N[C@@H]3C[C@H]4CC[C@@H](C3)N4CCC#N)n2)n[nH]1; test system = Sprague-Dawley rat, male, plasma; setting = oral, 1000 mg/kg/day, last day of 4 weeks; quantity = Cmax; value = 62.5 ng/mL
